{"data": "Published values of several laboratories", "target": "Fibroblast growth factor receptor 1 (FGFR1, Homo sapiens, UniProt P11362)", "note": "Compare with care: the assays were run in different laboratories. Values joined by “and” are separate records of one study, mostly repeats; a detail may differ.", "UniProt P11362, sequence (whole entry, looked up)": "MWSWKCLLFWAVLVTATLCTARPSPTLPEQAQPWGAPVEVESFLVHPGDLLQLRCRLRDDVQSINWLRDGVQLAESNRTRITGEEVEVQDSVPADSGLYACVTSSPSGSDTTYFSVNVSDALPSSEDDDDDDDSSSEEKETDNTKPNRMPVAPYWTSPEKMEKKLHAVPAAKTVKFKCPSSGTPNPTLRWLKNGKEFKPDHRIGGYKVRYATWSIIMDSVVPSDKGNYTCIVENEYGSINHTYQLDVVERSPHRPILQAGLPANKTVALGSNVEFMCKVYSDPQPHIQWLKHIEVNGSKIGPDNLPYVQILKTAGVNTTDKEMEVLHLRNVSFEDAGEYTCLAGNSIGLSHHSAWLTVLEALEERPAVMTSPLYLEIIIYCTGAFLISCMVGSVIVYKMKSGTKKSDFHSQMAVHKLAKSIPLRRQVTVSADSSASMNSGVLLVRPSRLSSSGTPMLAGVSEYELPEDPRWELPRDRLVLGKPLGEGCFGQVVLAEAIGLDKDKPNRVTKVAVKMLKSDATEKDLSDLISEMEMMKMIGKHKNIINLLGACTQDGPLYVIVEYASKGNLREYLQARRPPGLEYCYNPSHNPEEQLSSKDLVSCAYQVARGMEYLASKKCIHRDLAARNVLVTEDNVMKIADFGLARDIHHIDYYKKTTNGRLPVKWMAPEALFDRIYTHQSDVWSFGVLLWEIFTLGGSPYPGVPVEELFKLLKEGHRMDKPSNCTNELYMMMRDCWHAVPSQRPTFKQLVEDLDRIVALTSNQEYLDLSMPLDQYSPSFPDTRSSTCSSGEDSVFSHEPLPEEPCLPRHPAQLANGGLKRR"}
{"SMILES": "Cc1ccc2oc(-c3c4c(N)n[nH]c(=O)c4nn3-c3c(Cl)cccc3Cl)c(C)c2c1", "test": "enzyme activity, inhibitor, ELISA", "IC50": "118 nM"}
{"SMILES": "COc1cc2nccc(Oc3ccc(NC(=S)Nc4cccc(C(F)(F)F)c4)c(Cl)c3)c2cc1C(N)=O", "IC50": "3540 nM"}
{"SMILES": "Cc1ccc2c(C)c(-c3c4c(N)n[nH]c(=O)c4nn3-c3ccccc3)oc2c1", "test": "enzyme activity, inhibitor, ELISA", "IC50": "79 nM"}
{"SMILES": "C=C(C)C(=O)Nc1ccc(-c2c(-c3ccc(Oc4nccc(C)n4)cc3)c3c(N)ncnc3n2C)cc1", "test": "Caliper mobility shift", "conditions": "30 min preincubation, added: 100 µM ATP", "IC50": "1290 nM"}
{"SMILES": "O=C1Nc2ccc(-c3ccc(C(=O)N4CCCCC4)cc3)cc2/C1=C/c1ccc(N2CCNCC2)cc1", "test": "enzyme activity, inhibitor, FRET", "IC50": "18.3 nM"}
{"SMILES": "Cc1ccnc(Oc2ccc(-c3c(-c4ccc(NC(=O)C(C)C)cc4)n(C)c4ncnc(N)c34)cc2F)n1", "test": "Caliper mobility shift", "conditions": "30 min preincubation, added: 100 µM ATP", "IC50": "4600 nM"}
{"SMILES": "COc1cc2nccc(Oc3ccc(NC(=S)N4CCCC4)c(Cl)c3)c2cc1C(N)=O", "IC50": "227 nM"}
{"SMILES": "Cc1cc2c(C)c(-c3c4c(N)n[nH]c(=O)c4nn3-c3ccccc3)oc2cc1Cl", "test": "enzyme activity, inhibitor, ELISA", "IC50": "110 nM"}
{"SMILES": "COc1ccc(-c2cn(C)c3ncnc(N)c23)cc1", "test": "Caliper mobility shift", "conditions": "30 min preincubation, added: 100 µM ATP", "IC50": "3300 nM"}
{"SMILES": "Cc1nc2ccc(Cc3c[nH]c4ncc(C(F)(F)F)cc34)cc2o1", "test": "enzyme activity, inhibitor", "IC50": "266 nM"}
{"SMILES": "C#Cc1cccc(Nc2ncnc3cc(OC)c(OCCCN4CCOCC4)cc23)c1", "test": "kinase activity, inhibitor", "conditions": "added: ATP 80.8 µM", "IC50": "> 10000 nM"}
{"SMILES": "C=CC(=O)Nc1ccc(-n2nc3c(=O)[nH]nc(N)c3c2-c2oc3cc(F)ccc3c2C)cc1", "test": "enzyme activity, inhibitor, ELISA", "IC50": "79 nM"}
{"SMILES": "COc1cc2nccc(Oc3ccc(NC(=S)NCc4ccncc4)c(Cl)c3)c2cc1C(N)=O", "IC50": "1730 nM"}
{"SMILES": "CN1CCN(C(=O)c2ccc(-c3ccc4c(c3)/C(=C/c3ccc(N5CCNCC5)cc3)C(=O)N4)cc2)CC1", "test": "enzyme activity, inhibitor, FRET", "IC50": "< 16 nM and 10 nM"}
{"SMILES": "COc1cc2nccc(Oc3ccc(NC(=O)NC4CC4)c(Cl)c3)c2cc1C(N)=O", "test": "enzyme activity, inhibitor", "IC50": "40 nM"}
{"SMILES": "CCN(CC)CCOc1cc2nccc(Oc3ccc(NC(=S)NC4CC4)c(Cl)c3)c2cc1C(N)=O", "IC50": "9030 nM"}
{"SMILES": "O=C1Nc2ccc(-c3ccc(C(=O)N4CCCC4)cc3)cc2/C1=C/c1ccc(N2CCNCC2)cc1", "test": "enzyme activity, inhibitor, FRET", "IC50": "92.4 nM"}
{"SMILES": "COc1cc2nccc(Oc3ccc(NC(=S)N4CCC(F)(F)CC4)c(Cl)c3)c2cc1C(N)=O", "IC50": "457 nM"}
{"SMILES": "C=CC(=O)N1CC=C(c2c(-c3ccc(Oc4cccc(C)n4)cc3)c3c(N)ncnc3n2C)C1", "test": "Caliper mobility shift", "conditions": "30 min preincubation, added: 100 µM ATP", "IC50": "250 nM"}
{"SMILES": "COc1cc2nccc(Oc3ccc(NC(=S)NC4CC4)nc3)c2cc1C(N)=O", "IC50": "> 10000 nM"}
{"SMILES": "COc1cc(Cc2c[nH]c3ncc(C(F)(F)F)cc23)cc(OC)c1", "test": "enzyme activity, inhibitor", "IC50": "7 nM"}
{"SMILES": "O=C1Nc2ccc(-c3ccc(-c4ccc(O)cc4)cc3)cc2/C1=C/c1ccc(N2CCNCC2)cc1", "test": "enzyme activity, inhibitor, FRET", "IC50": "72.2 nM"}
{"SMILES": "CCOCCCOc1cc2nccc(Oc3ccc(NC(=S)NC4CC4)c(Cl)c3)c2cc1C(N)=O", "IC50": "216 nM"}
{"note": "A few entries again:"}
{"SMILES": "C#Cc1cccc(Nc2ncnc3cc(OC)c(OCCCN4CCOCC4)cc23)c1", "test": "kinase activity, inhibitor", "conditions": "added: ATP 80.8 µM", "IC50": "> 10000 nM"}
{"SMILES": "C=CC(=O)Nc1ccc(-n2nc3c(=O)[nH]nc(N)c3c2-c2oc3cc(F)ccc3c2C)cc1", "test": "enzyme activity, inhibitor, ELISA", "IC50": "79 nM"}
{"SMILES": "COc1cc2nccc(Oc3ccc(NC(=S)NCc4ccncc4)c(Cl)c3)c2cc1C(N)=O", "IC50": "1730 nM"}
